Published values pooled from the literature.
Every numbered part comes from another study and shows a few of its results, in no order. Substitutions count along the parent as printed.

Set 1
Target: Prothrombin, mature alpha-thrombin (F2, Homo sapiens, UniProt P00734)
Method: aptamer microarray, sandwich
Form: DNA with 2'F-ANA
Medium: in vitro
Tested at: 200 nM
Setting: whole 15-mer aptamer, many near background
Added: Cy3 exosite-II aptamer, 400 nM
Reading: higher = stronger binding
Strand: GGTTGGTGTGGTTGG
| Modification | mean fluorescence intensity [a.u.] |
| --- | --- |
| 2'F-ANA at 2 3 5 6 7 9 13 14 15 | 49.2 |
| 2'F-ANA at 1 2 5 6 10 11 12 15 | 52.6 |
| 2'F-ANA at 1 7 10 11 13 14 | 55.5 |
| 2'F-ANA at 7 8 9 11 14 | 226 |
| 2'F-ANA at 4 7 8 9 12 13 14 | 107 |
| 2'F-ANA at 1 2 5 6 7 9 10 11 12 | 51.2 |
| 2'F-ANA at 3 6 7 9 10 11 13 14 15 | 323 |
| 2'F-ANA at 2 4 5 6 8 11 14 15 | 47.6 |
| 2'F-ANA at 1 3 4 5 13 14 | 42.5 |
| 2'F-ANA at 1 2 4 5 6 7 9 10 15 | 49.6 |
| 2'F-ANA at 1 2 3 4 5 6 7 8 9 10 11 12 14 15 | 49.7 |
| 2'F-ANA at 1 4 5 6 11 12 15 | 74.1 |
| 2'F-ANA at 3 4 5 10 11 12 14 | 49.2 |
| 2'F-ANA at 1 3 4 5 7 9 13 14 | 45.8 |
| 2'F-ANA at 2 8 11 12 13 14 15 | 161 |
| 2'F-ANA at 4 8 9 12 14 15 | 120 |
| 2'F-ANA at 4 5 7 8 10 12 13 14 | 45.6 |
| 2'F-ANA at 4 5 6 7 9 10 11 13 14 | 43.1 |
| 2'F-ANA at 2 3 4 5 8 9 10 11 12 13 15 | 77.4 |
| 2'F-ANA at 2 3 5 6 7 8 10 11 14 | 78.7 |
| 2'F-ANA at 1 3 4 5 6 7 8 10 11 12 13 | 60.3 |
| 2'F-ANA at 1 6 7 10 11 13 15 | 51.2 |
| 2'F-ANA at 1 5 8 10 14 15 | 59.9 |

Set 2
Target: MAFK, bZIP domain (human)
Method: DHFR protein complementation
Medium: yeast
Setting: single substitutions, most at no-binding floor
Baseline: wild-type JUN-FOS pair
Reading: higher = stronger binding
Starting sequence: JUN, bZIP domain (human); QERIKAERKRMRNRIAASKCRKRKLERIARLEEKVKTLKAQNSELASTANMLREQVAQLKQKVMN; partner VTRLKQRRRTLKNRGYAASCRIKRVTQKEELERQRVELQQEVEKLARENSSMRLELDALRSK
| Variant | binding fitness [natural log] |
| --- | --- |
| L38A | -1.46 |
| V35R | -1.39 |
| K34D | -1.47 |
| L52W | -1.39 |
| L38R | -1.51 |
| E44R | -1.38 |
| S47Y | -1.55 |
| T48K | -1.41 |
| L45I | -1.48 |
| A40Y | -1.49 |
| M51A | -1.51 |
| T37H | -1.49 |
| N42H | -1.44 |
| A29Y | -1.22 |
| L38T | -1.49 |
| L59R | -1.18 |
| K36P | -1.48 |
| S47I | -1.47 |
| T37V | -1.43 |
| N42Y | -1.34 |
| R53G | -1.53 |

Set 3
Target: RING finger protein unkempt homolog, zinc fingers 1-6, GST-SBP tag (UNK, Homo sapiens, UniProt Q9C0B0, residues 30-357)
UniProt Q9C0B0, sequence (30-357, looked up): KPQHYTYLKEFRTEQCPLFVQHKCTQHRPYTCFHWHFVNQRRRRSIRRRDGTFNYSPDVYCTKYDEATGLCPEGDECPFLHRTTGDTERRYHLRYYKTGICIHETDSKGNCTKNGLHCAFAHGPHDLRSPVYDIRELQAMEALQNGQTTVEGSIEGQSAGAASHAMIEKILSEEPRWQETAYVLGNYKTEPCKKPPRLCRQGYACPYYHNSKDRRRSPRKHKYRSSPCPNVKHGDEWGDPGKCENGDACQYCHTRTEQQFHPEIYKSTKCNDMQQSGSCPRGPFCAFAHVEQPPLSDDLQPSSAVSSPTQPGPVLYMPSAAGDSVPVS
Method: RNA Bind-n-Seq
Form: RNA
Medium: in vitro
Tested at: not given
Setting: RNA with constant flanks, ends assumed
Baseline: input RNA pool
Reading: higher = stronger binding
All sequences stand within: GGGAGUUCUACAGUCCGACGAUC … CAACAGAGGAUUGAGCAUCA
| Strand | bound/input enrichment |
| --- | --- |
| ACUCCUGUGUCAUAUGACCAGGGGGCAAAUAUGGCCAAGCAGAUCGGAGCAGCCACUUACACCGAAUGCUCAGCUUUACAGUCAGAAAACAGCGUCAGAGACAUUUUUCACGUCGCCACC | 0.13 ratio |
| AGUAGGAAAAUUACUGUUUUGCAAGUGAAUGAAAAAUCACUUAUAAGGCAAUAUACAACCUCCGCCGAAUUGGAGCGACAACUUAGAAAAGAAAAUGAGAAGCAAAAGAAUGAAUUGUUG | 3.86 ratio |
| UUUUUUCAGUAAGACUUUCAGGCACUUCUUCCCUUUUGAUUUCUUUUUUUUCCUCUGUUUUUCCGCAUGCAAGUAUGUUGGUACGUUAUGUCCUGGUUUAAAAAGGAUUAAAAUUUUAAA | 0.425 ratio |
| GCGGUGGUGGUGGAGAAGGACGCAGUGUUUAUUCCAGCAGGGUGGGAUAAUGAUAAGAAAACCGGAAUAUUACAUGAAAAUUUUCAGACUUUGAAAGUAGAAGAUAAUUUUGAAGACAUC | 1.27 ratio |
| GAUCUCGUCUGAGCAUCUCUAGUGACCUUCUCUGCAUUAACUGUCAGUGCUACGGAUAUUUUCCGCUCCAAGUCCUGGCAGGGUGGGGCACCUAUCUGAGGCAGGGUUUGGUGCCCCCUC | 0.163 ratio |
| AGUGUUAAAUUUAACCCAAUUGAGACAUUUCUCUUGGGAAGUUGUGCAUCUGACAGGAAUACCGUACUGUACGAUAUGAGGCAAGCUACUCCUUUGAAAAAGGUUAUCUUAGAUAUGAGA | 0.212 ratio |
| CAAGGCUGACAGUAACACUGAUGAAUGCUGAUAAUCAGGAAACAUGAAAGAAGCCAUUUGACCGAUUAUUCUAAAGGAUAUCAUCAAGAAGACUAUUAAAAACACCUAUGCCUAUACUUU | 0.105 ratio |
| UGUGGCUGAGGACUUUGUACAUUGUUUUGUUUUUUUUUUUUUUUGGUUUUGUCUUUUUUUAACCGUCAUUCCAAGUAUCCAUGAAAUAAGUGGUUACAGGAAGUCCCUCACCCUCCCAAA | 1.52 ratio |
| UGCAACCAGCCUCAGGAUGCCAUUAAAUGCUACUUAAAUGCAACUAGAAGCAAAAGUUGCCGUAAUACCUCUGCACUUGCAGCACGAAUUAAGUAUUUACAGGCUCAGUUGUGUAACCUU | 0.154 ratio |
| AGGUUAACUCUGAGAGCUAUCAAACUAUGGGCCAAACGCCACAACAUCUAUUCCAAUAUAUCCGGUUUCCUCGGUGGUGUUUCCUGGGCUAUGCUAGUAGCAAGAACUUGCCAGCUUUAU | 0.25 ratio |
| AUAUUUGUAAAUAAAGGUAGAAACAUUGGGAUCCACCCCUGCAGAACUUACUGUACAGUUCCGUUGAAGUGUAGAAAGGAAUUGUCAGCUCAUCGUGACUGAUACAUAGUGAAGAAAGUA | 3.43 ratio |

Set 4
Target: Ras GTPase-activating protein-binding protein 1, RRM domain (G3BP1, Homo sapiens, UniProt Q13283)
UniProt Q13283, sequence (whole entry, looked up): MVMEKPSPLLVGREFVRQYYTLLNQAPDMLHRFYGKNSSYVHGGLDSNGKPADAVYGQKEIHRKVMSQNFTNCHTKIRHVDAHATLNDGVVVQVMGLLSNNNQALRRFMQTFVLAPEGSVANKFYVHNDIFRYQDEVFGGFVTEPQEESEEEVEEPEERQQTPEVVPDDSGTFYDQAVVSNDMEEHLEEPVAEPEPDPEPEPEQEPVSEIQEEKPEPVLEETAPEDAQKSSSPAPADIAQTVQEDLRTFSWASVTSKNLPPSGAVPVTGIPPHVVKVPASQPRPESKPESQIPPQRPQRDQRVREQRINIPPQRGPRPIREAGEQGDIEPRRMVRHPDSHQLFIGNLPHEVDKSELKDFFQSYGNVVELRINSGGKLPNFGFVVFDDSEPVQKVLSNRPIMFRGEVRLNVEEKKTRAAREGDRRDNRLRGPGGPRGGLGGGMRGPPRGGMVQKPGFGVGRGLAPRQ
Method: RNA Bind-n-Seq
Form: RNA
Medium: in vitro
Tested at: 1 µM
Setting: whole 134-nt RNA, ends assumed
Added: 150 mM KCl
Baseline: input library
Reading: higher = stronger binding
All sequences stand within: GGGAGUUCUACAGUCCGACGAUC … UGGAAUUCUCGGGUGUCAAGG
| Strand | log2 enrichment |
| --- | --- |
| UCCUGUGCUACACAUCGUAUGUACCGAAUCGGGGAAAGGGGUUUUUUUGGGGUUUGGGGAAAGUAUUAUGUUACGCCGUUCGGAUCUGCA | 0.834 |
| CAAGUCCUGUGCUACACAUCGUAUGUACCGAAUCGGUGGAAAAAGGUUUUUUUGGAAAGUAUUAUGUUACGCCGUUCGGAUCUGCACUUC | -0.253 |
| CAAGUCCUGUGCUACACAUCGUAUGUACCGAAUCGGUUUUUGGUUUGGAAAAAGGAAAGUAUUAUGUUACGCCGUUCGGAUCUGCACUUC | -0.295 |
| UCCUGUGCUACACAUCGUAUGUACCGAAUCGGGGAAAAAAGGAAAAAAGGGAAAAAAGGGAAAGUAUUAUGUUACGCCGUUCGGAUCUGC | -0.00617 |
| UAACUUUAGAGGAGGAUCUGAUGGAUAUGGCAGUGGACGUGGAUUUGGGGAUGGCUAUAACGGGUAUGGAGGAGGACCUGGAGGUGGCAA | -0.531 |
| UAACUUUAGAGGAGGAUCUGAUGGAUAUGGCAGUGGGCGUGGAUUUGGGGAUGGCUAUAAUGGGUAUGGAGGAGGACCUGGAGGUGGCAA | -0.575 |
| AAAUGGUAGUGUGCGGAGUUUUUUUUUCUUCCUUCUUUUAAAAAUGGUUGUUUAAGACUUUAACAAUGGGAACCCCUUGUGAGCAUGCUC | -0.866 |
| ACCAUCCAGGUGGGCAUCUUUGGGAAGUGGGGCAAGGGGGGGAUAGGGAGGGGGGUAACACUUUGGGAACAGGUGGUCCCAGGUCGUUUC | -0.525 |
| CCUCAAGUCCUGUGCUACACAUCGUAUGUACCGAAUCGGGGUGGUGGGUGGGAAAGUAUUAUGUUACGCCGUUCGGAUCUGCACUUCCAG | 0.166 |
| GUCCUGUGCUACACAUCGUAUGUACCGAAUCGGGGAAAAGGGAAAAGGGGAAAAGGGGAAAGUAUUAUGUUACGCCGUUCGGAUCUGCAC | 0.373 |
| GUCCUGUGCUACACAUCGUAUGUACCGAAUCGGGUUUUUGGGUUUUUGGGGUUUUUGGGAAAGUAUUAUGUUACGCCGUUCGGAUCUGCA | 0.147 |
| UGGGAGGUGGAUUUUGUUUAUUUUUUUAGCUCAUUUCCAGGGGUGGGAAUUUUUUUUUAAUAUGUGUCAUGAAUAAAGUUGUUUUUGAGA | 1.45 |
| GUCCUGUGCUACACAUCGUAUGUACCGAAUCGGGUUUGGGUUUUUUUGGGAAAAAGGGAAAGUAUUAUGUUACGCCGUUCGGAUCUGCAC | 0.209 |
| CAAGUCCUGUGCUACACAUCGUAUGUACCGAAUCGGAAAGGUUUUUGGAAAAAGGAAAGUAUUAUGUUACGCCGUUCGGAUCUGCACUUC | -0.261 |

Set 5
Target: CCNB1, cyclin fold, Cln2 fusion (human)
Method: yeast growth competition, sequencing
Medium: yeast
Setting: weak parent motif
Baseline: not given
Reading: higher = stronger binding
Starting sequence: CABLES2 docking peptide (human); ICAKRSLCAAFSV
| Variant | normalised enrichment score |
| --- | --- |
| K4A | -0.0548 |
| L7A | -0.134 |
| S6A | 0.371 |
| I1A | -0.114 |
| R5A | 0.0643 |

For quick reference, copied from above (set 3):
| Strand | bound/input enrichment |
| --- | --- |
| ACUCCUGUGUCAUAUGACCAGGGGGCAAAUAUGGCCAAGCAGAUCGGAGCAGCCACUUACACCGAAUGCUCAGCUUUACAGUCAGAAAACAGCGUCAGAGACAUUUUUCACGUCGCCACC | 0.13 ratio |
| AGUAGGAAAAUUACUGUUUUGCAAGUGAAUGAAAAAUCACUUAUAAGGCAAUAUACAACCUCCGCCGAAUUGGAGCGACAACUUAGAAAAGAAAAUGAGAAGCAAAAGAAUGAAUUGUUG | 3.86 ratio |
| UUUUUUCAGUAAGACUUUCAGGCACUUCUUCCCUUUUGAUUUCUUUUUUUUCCUCUGUUUUUCCGCAUGCAAGUAUGUUGGUACGUUAUGUCCUGGUUUAAAAAGGAUUAAAAUUUUAAA | 0.425 ratio |
| GCGGUGGUGGUGGAGAAGGACGCAGUGUUUAUUCCAGCAGGGUGGGAUAAUGAUAAGAAAACCGGAAUAUUACAUGAAAAUUUUCAGACUUUGAAAGUAGAAGAUAAUUUUGAAGACAUC | 1.27 ratio |
| GAUCUCGUCUGAGCAUCUCUAGUGACCUUCUCUGCAUUAACUGUCAGUGCUACGGAUAUUUUCCGCUCCAAGUCCUGGCAGGGUGGGGCACCUAUCUGAGGCAGGGUUUGGUGCCCCCUC | 0.163 ratio |
